# Assay results pooled from the literature.
# ± gives the spread as reported.
# CBF1 full length assumed: CBF1 full length assumed (Saccharomyces cerevisiae, UniProt P17106)
# UniProt P17106, sequence (whole entry, looked up): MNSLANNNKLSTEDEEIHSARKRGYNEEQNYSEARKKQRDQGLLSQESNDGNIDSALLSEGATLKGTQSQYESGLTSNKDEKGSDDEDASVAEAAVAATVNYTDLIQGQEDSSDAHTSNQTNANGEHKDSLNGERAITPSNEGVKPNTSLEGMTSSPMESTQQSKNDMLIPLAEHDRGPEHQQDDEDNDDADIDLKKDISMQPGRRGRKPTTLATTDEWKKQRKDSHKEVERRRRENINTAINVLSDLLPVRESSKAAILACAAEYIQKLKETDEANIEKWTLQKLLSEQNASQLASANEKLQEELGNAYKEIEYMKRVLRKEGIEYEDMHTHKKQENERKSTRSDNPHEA
# CBF1: CBF1 1-351 (Saccharomyces cerevisiae, UniProt P17106)
# U2AF2: U2AF2 148-342 (Homo sapiens, UniProt P26368)
# UniProt P26368, sequence (whole entry, looked up): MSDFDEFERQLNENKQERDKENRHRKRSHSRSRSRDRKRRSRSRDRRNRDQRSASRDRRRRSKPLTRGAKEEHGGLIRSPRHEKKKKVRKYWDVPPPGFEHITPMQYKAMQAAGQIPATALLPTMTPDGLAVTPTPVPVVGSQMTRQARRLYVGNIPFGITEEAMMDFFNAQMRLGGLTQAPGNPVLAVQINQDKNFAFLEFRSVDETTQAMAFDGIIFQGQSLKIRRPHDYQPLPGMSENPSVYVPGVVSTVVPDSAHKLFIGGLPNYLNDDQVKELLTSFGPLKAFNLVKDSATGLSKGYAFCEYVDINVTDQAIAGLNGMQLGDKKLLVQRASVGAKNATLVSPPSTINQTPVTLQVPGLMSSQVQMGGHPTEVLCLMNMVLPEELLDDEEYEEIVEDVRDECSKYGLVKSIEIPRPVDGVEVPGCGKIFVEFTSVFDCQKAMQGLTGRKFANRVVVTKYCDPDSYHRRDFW
# pdhR full length assumed: pdhR full length assumed (Escherichia coli, UniProt P0ACL9)
# UniProt P0ACL9, sequence (whole entry, looked up): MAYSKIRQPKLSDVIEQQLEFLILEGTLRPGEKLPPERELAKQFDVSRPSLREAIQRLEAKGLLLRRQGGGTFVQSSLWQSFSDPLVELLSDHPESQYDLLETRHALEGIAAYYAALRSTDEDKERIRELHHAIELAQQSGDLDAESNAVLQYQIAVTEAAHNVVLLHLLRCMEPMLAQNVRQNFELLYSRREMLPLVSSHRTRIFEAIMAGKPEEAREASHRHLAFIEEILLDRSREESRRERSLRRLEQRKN
# HMGB3 full length assumed: HMGB3 full length assumed (Homo sapiens, UniProt O15347)
# UniProt O15347, sequence (whole entry, looked up): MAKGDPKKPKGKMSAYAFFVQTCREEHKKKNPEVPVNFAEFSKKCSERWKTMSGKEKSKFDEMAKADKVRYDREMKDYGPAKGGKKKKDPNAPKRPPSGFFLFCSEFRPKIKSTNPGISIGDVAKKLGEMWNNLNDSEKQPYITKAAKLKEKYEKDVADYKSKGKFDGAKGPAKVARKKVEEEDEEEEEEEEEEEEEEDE
# SPT15 full length assumed: SPT15 full length assumed (Saccharomyces cerevisiae, UniProt P13393)
# UniProt P13393, sequence (whole entry, looked up): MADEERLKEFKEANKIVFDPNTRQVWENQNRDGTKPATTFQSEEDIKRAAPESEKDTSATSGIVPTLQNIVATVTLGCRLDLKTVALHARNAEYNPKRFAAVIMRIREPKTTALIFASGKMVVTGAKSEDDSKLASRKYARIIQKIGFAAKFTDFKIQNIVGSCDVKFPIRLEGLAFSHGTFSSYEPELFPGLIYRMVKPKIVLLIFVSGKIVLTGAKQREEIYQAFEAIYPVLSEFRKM
# TDG: TDG 1-410 (Homo sapiens, UniProt Q13569)
# UniProt Q13569, sequence (whole entry, looked up): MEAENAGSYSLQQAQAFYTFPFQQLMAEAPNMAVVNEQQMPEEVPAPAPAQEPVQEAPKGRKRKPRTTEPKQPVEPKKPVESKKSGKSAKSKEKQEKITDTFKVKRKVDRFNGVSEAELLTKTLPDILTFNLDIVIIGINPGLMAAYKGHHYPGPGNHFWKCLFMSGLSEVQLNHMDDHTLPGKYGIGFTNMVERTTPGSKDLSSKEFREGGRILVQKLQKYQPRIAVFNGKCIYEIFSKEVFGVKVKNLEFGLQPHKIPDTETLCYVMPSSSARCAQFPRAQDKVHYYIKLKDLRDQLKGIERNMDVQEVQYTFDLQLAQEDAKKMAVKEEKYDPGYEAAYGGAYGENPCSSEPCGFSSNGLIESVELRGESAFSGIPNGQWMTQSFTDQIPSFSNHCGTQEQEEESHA
# PARP1: PARP1 1-1014 (Homo sapiens, UniProt P09874)
# UniProt P09874, sequence (whole entry, looked up): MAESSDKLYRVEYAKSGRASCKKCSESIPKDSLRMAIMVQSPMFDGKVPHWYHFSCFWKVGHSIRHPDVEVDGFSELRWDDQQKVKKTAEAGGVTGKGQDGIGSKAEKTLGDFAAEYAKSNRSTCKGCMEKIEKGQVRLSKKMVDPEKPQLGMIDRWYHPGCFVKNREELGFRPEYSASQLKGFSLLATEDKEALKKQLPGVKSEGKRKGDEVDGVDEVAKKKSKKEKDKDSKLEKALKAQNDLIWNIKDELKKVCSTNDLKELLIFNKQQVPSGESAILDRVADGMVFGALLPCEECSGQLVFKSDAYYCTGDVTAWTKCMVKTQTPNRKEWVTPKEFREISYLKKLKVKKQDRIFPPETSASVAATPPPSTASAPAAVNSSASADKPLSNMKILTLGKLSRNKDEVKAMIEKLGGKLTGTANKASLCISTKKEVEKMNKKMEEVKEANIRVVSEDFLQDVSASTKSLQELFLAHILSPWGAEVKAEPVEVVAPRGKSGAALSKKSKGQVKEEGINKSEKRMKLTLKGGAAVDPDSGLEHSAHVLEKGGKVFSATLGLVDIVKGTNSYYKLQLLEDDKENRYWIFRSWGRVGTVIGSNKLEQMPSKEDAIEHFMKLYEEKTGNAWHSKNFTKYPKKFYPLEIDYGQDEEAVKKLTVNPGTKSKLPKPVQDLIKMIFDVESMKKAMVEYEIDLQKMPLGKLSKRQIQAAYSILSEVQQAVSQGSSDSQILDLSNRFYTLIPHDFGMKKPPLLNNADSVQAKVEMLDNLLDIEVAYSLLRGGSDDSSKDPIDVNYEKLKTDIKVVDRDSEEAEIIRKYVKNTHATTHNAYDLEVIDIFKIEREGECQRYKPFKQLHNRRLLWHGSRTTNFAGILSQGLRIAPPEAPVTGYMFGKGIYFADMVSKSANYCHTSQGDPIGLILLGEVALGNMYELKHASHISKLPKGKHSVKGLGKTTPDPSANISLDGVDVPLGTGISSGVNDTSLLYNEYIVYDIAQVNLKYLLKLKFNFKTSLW
# PHO4: PHO4 1-312 (Saccharomyces cerevisiae, UniProt P07270)
# UniProt P07270, sequence (whole entry, looked up): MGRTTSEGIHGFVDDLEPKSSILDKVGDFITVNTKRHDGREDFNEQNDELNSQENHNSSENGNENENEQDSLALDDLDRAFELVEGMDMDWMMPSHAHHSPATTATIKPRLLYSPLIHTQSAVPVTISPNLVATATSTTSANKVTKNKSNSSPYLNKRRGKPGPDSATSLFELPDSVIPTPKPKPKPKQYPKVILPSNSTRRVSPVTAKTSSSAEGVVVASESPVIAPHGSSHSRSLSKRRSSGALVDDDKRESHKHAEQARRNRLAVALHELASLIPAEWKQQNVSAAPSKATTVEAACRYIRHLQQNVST
# CIN5 full length assumed: CIN5 full length assumed (Saccharomyces cerevisiae, UniProt P40917)
# UniProt P40917, sequence (whole entry, looked up): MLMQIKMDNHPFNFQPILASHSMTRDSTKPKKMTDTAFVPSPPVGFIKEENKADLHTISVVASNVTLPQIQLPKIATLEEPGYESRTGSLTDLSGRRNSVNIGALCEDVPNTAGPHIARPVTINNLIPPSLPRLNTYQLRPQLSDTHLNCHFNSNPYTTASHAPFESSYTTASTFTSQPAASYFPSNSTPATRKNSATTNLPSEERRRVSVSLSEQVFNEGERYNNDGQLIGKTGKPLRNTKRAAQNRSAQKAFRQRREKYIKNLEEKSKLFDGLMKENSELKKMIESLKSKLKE
# T1: TOA1/TOA2 1-286; 1-122 (Saccharomyces cerevisiae); chain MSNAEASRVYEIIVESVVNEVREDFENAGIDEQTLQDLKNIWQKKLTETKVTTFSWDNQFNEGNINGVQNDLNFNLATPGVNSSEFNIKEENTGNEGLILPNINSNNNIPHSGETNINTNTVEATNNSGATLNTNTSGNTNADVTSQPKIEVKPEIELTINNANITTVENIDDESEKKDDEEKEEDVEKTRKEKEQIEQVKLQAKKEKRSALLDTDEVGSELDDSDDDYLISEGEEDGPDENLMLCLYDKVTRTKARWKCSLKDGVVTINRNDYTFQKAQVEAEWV; chain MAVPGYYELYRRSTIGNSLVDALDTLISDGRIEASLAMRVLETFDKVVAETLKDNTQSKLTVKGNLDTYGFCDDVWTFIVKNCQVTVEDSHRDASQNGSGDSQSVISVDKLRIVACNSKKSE
# UniProt Q47005, sequence (whole entry, looked up): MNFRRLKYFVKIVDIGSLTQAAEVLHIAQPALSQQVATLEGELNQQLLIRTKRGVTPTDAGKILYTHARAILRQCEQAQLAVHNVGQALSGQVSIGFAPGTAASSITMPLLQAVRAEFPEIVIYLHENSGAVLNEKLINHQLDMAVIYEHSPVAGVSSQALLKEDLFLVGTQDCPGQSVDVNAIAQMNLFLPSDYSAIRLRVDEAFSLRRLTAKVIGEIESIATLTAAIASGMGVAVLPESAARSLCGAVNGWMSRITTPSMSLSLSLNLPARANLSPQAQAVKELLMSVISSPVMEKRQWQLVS
# UniProt P15976, sequence (whole entry, looked up): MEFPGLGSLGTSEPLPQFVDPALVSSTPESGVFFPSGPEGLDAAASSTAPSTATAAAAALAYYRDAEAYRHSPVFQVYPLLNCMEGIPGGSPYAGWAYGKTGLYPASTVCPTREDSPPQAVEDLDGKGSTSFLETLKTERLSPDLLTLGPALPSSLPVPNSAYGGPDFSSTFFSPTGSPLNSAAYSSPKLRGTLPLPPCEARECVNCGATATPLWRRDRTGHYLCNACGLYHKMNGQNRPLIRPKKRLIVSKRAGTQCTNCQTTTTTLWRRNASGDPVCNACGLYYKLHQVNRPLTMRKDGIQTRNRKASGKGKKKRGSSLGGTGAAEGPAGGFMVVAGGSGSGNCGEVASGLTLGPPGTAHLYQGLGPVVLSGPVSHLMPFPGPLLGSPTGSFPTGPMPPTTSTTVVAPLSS
# UniProt P0AFB8, sequence (whole entry, looked up): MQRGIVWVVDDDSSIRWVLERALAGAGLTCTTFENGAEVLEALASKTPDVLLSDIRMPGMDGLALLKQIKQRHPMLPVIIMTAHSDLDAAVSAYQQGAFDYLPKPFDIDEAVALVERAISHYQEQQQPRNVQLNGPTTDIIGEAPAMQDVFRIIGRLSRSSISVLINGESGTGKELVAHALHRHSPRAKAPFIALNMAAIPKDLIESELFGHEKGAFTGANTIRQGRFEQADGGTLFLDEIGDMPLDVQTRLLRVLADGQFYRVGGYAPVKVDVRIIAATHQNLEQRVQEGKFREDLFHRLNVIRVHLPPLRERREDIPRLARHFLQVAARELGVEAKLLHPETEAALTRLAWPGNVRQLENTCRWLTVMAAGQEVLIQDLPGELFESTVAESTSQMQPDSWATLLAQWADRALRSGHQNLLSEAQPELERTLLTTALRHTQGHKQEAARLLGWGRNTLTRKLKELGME
Oligonucleotide,target,assay,system,conditions,Kd [nM]
CGCGGACACGTGTACACGTTCACACGTTGACACGTTTACACTACCACACTACGACCTCCGGCGGTATGAC (dsDNA),CBF1 full length assumed,MITOMI,"double-stranded DNA, one strand shown",not purified,110 ± 10
CAATACACTGTTATCAGGCACACGTGTCGAGCTACTCGTTCGGTTATCCGGCGGTATGAC (dsDNA),CBF1,MITOMI,"double-stranded DNA, one strand shown",not purified,182 ± 10
AUCAUGUGCCAUAC (ssRNA),"fbf-1 162-614 (Caenorhabditis elegans, UniProt Q9N5M6)",EMSA,RNA,,41
UGUAUUUUU (ssRNA),U2AF2,sequencing of bound RNA,RNA,motif only,7700
GAUAAAGAUCAUGACAUCGACUACAAGGACGACGACGACAAGGUUGUGGAGCUGAUCGAGAAGCACCACCACCACCACCACAAAGUGGUGAUGAACUAA (RNA; predicted 2-5 helices),FMR1 fragment (Homo sapiens),fluorescence anisotropy,folded RNA,added: tRNA competitor,11000 ± 6000
CGCCACGTGGTGACGTGGTTACGTGTAGACGTGTATACGTGTCCACGTGTCGACGCTCCGGCGGTATGAC (dsDNA),CBF1 full length assumed,MITOMI,"double-stranded DNA, one strand shown",not purified,58 ± 5
AGCGTCACAGACATGAAGCTGGTCTGACCACTTGGCTTCGGCAAGTGGCTTAAGACAGGAA (dsDNA),pdhR full length assumed,BLI,"double-stranded DNA, one strand shown",,17.9
"CCATCGCTACC (dsDNA; blunt, trans-N2-BPDE-dG at position 6)",HMGB3 full length assumed,fluorescence anisotropy,"double-stranded DNA, one strand shown",,0.35 ± 0.05
CUCUUUGGA (ssRNA),U2AF2,sequencing of bound RNA,RNA,motif only,3230
CTCAGGAATTCCTATAGAGTAATGTGGAGCTCAGTTCAAGTCAATCGGTCC (dsDNA; 5'-amino-C6 primer),SPT15 full length assumed,array,"double-stranded DNA, one strand shown",TBP alone,1.97 ± 0.16
AACUUAUAU (ssRNA),U2AF2,sequencing of bound RNA,RNA,motif only,3810
DNA 1 TGAGGATGTATATATCTGACGCGCCGGTGGAGC / DNA 2 GCTCCACCGGCGCGTACGATATATACATCCTCA (dsDNA),TDG,EMSA,double-stranded DNA,,43
AGATCTCCATCCTTGGGATATGGCTACCAGAAAGTAAAGGGACGATACAAGTCAAGTGAGA (dsDNA),"nac full length assumed (Escherichia coli, UniProt Q47005)",BLI,"double-stranded DNA, one strand shown",,1660
GCAGUAGGGUGAGGGUGUUGGCAGGGAGCGCCCUCCCCCAUAGUGU (RNA; multiple G-quadruplex hairpins),PARP1,fluorescence polarization,folded RNA,Hill coefficient 0.50,28.6 ± 4.7
ATGGCGGGCTATGATCCTAT (dsDNA),HMGB3 full length assumed,fluorescence anisotropy,"double-stranded DNA, one strand shown",,70 ± 7
GAATTCCTATGAAGTAATGTGGAGCTCCGTTCGTCTCAAGTCAATCGGTCC (dsDNA; 5'-amino-C6 primer),SPT15 full length assumed,array,"double-stranded DNA, one strand shown",TBP alone,2.73 ± 0.17
AAACAUUUU (ssRNA),U2AF2,sequencing of bound RNA,RNA,motif only,3460
TATTATTGGCACTTCTGTATAACTGGCTTTCATTCTCAAGTCAATCGGTCC (dsDNA; 5'-amino-C6 primer),SPT15 full length assumed,array,"double-stranded DNA, one strand shown",TBP alone,1.93 ± 0.12
CAATACACTGTTATCAGACACACGTGTAGAGCTACTCGTTCGGTTATCCGGCGGTATGAC (dsDNA),PHO4,MITOMI,"double-stranded DNA, one strand shown",not purified,197 ± 8
GAUACAGAGAAG (ssRNA),"SART3 697-786 (Homo sapiens, UniProt Q15020)",ITC,RNA,,2600 ± 400
GGTAACTTAGCGTCTCGTTGTGAGTATTTCTGACAAGGAATGGAATGCGATGCGCATAACG (dsDNA),"ulaR full length assumed (Escherichia coli, UniProt P0A9W0)",BLI,"double-stranded DNA, one strand shown",,48.8
"GGCAGAGGCATTTTCGAGC (ssDNA; 5' C6 amino digoxigenin, internal Cy5)",anti-digoxigenin antibody (sheep),bead-based flow cytometry,,,5.6
GTTCCTGAAGGGGGGGCGGGGTGGGTATAAAAGGGTCAAGTCAATCGGTCC (dsDNA; 5'-amino-C6 primer),"T1, TOA1/TOA2 1-286; 1-122 (Saccharomyces cerevisiae)",array,"double-stranded DNA, one strand shown",TFIIA alone,100 ± 39.2
UCAACGACUCAACGAC (ssRNA),"ECD 1-644 (Homo sapiens, UniProt O95905)",FP,RNA,,4700 ± 1200
CTTGACCAATGC (dsDNA),"BCL11A 737-835 (Homo sapiens, UniProt Q9H165)",ITC,"double-stranded DNA, one strand shown",,19 ± 4
GGTAACTTAGCGTCTCGTTGTGATTAAGTTTGACGAGGAATGGAATGCGATGCGCATAACG (dsDNA),"glnG full length assumed (Escherichia coli, UniProt P0AFB8)",BLI,"double-stranded DNA, one strand shown",,6410
CGGCAGGACGUACAUCCCUCCCGGCUCCCCUCCCGCUGGCCUGCCG (RNA; extended stem-loop),PARP1,fluorescence polarization,folded RNA,Hill coefficient 1.07,42 ± 2.7
"CGCGCAAGGACA (ssRNA; single strand, N6-methyladenosine at A10)","FTO (Homo sapiens, UniProt Q9C0B1)",FRET titration,RNA,"added: ascorbic acid 2 mM, alpha-ketoglutarate 300 µM, NiSO4",3.8 ± 0.7
GAUUUGUCU (ssRNA),U2AF2,sequencing of bound RNA,RNA,motif only,10600
CAATACACTGTTATCAGACACACGTGTCGTGCTACTCGTTCGGTTATCCGGCGGTATGAC (dsDNA),PHO4,MITOMI,"double-stranded DNA, one strand shown",not purified,135 ± 3
CGCTATTTACGTCACTACGTCAGCACGTCAGGACGTCAGTACGTCATCACGTCATCTCCGGCGGTATGAC (dsDNA),CIN5 full length assumed,MITOMI,"double-stranded DNA, one strand shown",not purified,330 ± 20
CCAGGCAGAUAAGGAACAAC (ssRNA),"GATA1 200-319 (Homo sapiens, UniProt P15976)",fluorescence anisotropy,RNA,,80 ± 20
TTTGCGTGGGCTGTGGTGCTTT (ssDNA),"traI 309-858 K331A (Escherichia coli, UniProt P14565)",fluorescence titration,single-stranded DNA,,18.7 ± 4.2
CUUCACCCA (ssRNA),U2AF2,sequencing of bound RNA,RNA,motif only,1210
CGCCAATTATGGAATTATGTAATTATTCAATTATTGAATTATTTAATTCACCAATCTCCGGCGGTATGAC (dsDNA),CIN5 full length assumed,MITOMI,"double-stranded DNA, one strand shown",not purified,460 ± 40
DNA TGAGGATGTATATATCTGACGCGCCGGTGGAGC / RNA GCUCCACCGGCGCGUACGAUAUAUACAUCCUCA (DNA:RNA),TDG,EMSA,DNA-RNA hybrid,,67
CATTCGCAACCTATAAGTAAATCCAATGGAACTCATCATAAATGAGACTTTTACCTTATGA (dsDNA),pdhR full length assumed,BLI,"double-stranded DNA, one strand shown",,208
TCCTGAAGGGGAGCCTATAAAAGGTCCTATCGTCGTCAAGTCAATCGGTCC (dsDNA; 5'-amino-C6 primer),SPT15 full length assumed,array,"double-stranded DNA, one strand shown",TBP alone,3.9 ± 0.24
CAATACACTGTTATCAGACACACGTGTGGAGCTACTCGTTCGGTTATCCGGCGGTATGAC (dsDNA),CBF1,MITOMI,"double-stranded DNA, one strand shown",not purified,387 ± 22
CGCTTCAATGTTTGAATGTTTTAATTAATTACACAATTACAGAATTACATAATTACTCCGGCGGTATGAC (dsDNA),CIN5 full length assumed,MITOMI,"double-stranded DNA, one strand shown",not purified,240 ± 20
TGCATAAGATTTGGTCCAGTACTCGCAGGAAATGGTCAAGTCAATCGGTCC (dsDNA; 5'-amino-C6 primer),"SUA7 full length assumed (Saccharomyces cerevisiae, UniProt P29055)",array,"double-stranded DNA, one strand shown",TFIIB alone,2.34 ± 0.47
UUUUC (ssRNA),RNA-directed RNA polymerase P2 1-659 (UniProt Q94M06),fluorescence anisotropy,RNA,"MgCl2 5 mM, NaCl 50 mM",200 ± 100
GAUUUCAUU (ssRNA),U2AF2,sequencing of bound RNA,RNA,motif only,9730
GAATTCCTATAAAGTAATGTGGAGCTCCGTTCGTCTCAAGTCAATCGGTCC (dsDNA; 5'-amino-C6 primer),SPT15 full length assumed,array,"double-stranded DNA, one strand shown",TBP alone,1.21 ± 0.07

# Some of these lines once more:
Oligonucleotide,target,assay,system,conditions,Kd [nM]
DNA TGAGGATGTATATATCTGACGCGCCGGTGGAGC / RNA GCUCCACCGGCGCGUACGAUAUAUACAUCCUCA (DNA:RNA),TDG,EMSA,DNA-RNA hybrid,,67
AUCAUGUGCCAUAC (ssRNA),"fbf-1 162-614 (Caenorhabditis elegans, UniProt Q9N5M6)",EMSA,RNA,,41
GAUUUCAUU (ssRNA),U2AF2,sequencing of bound RNA,RNA,motif only,9730
CGCCAATTATGGAATTATGTAATTATTCAATTATTGAATTATTTAATTCACCAATCTCCGGCGGTATGAC (dsDNA),CIN5 full length assumed,MITOMI,"double-stranded DNA, one strand shown",not purified,460 ± 40
CUCUUUGGA (ssRNA),U2AF2,sequencing of bound RNA,RNA,motif only,3230
UUUUC (ssRNA),RNA-directed RNA polymerase P2 1-659 (UniProt Q94M06),fluorescence anisotropy,RNA,"MgCl2 5 mM, NaCl 50 mM",200 ± 100
